Measured values of several laboratories.
Each numbered part is a random draw from the data of one study; scales do not carry over between parts.
UniProt Q92985, sequence (whole entry, unmodified, looked up): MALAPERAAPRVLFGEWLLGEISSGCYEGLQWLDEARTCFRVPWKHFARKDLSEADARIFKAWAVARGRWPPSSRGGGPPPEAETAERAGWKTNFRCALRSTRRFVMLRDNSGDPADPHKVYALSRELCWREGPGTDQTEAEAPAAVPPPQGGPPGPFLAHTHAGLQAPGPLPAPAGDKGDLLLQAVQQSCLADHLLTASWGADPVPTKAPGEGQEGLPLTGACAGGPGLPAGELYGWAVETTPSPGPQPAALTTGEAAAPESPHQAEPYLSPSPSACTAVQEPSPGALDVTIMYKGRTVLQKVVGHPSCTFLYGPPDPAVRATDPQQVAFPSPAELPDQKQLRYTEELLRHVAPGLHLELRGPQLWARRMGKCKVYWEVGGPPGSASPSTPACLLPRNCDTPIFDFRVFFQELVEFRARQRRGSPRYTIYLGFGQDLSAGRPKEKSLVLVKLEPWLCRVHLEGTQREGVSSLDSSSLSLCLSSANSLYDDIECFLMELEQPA
UniProt Q14653, sequence (whole entry, unmodified, looked up): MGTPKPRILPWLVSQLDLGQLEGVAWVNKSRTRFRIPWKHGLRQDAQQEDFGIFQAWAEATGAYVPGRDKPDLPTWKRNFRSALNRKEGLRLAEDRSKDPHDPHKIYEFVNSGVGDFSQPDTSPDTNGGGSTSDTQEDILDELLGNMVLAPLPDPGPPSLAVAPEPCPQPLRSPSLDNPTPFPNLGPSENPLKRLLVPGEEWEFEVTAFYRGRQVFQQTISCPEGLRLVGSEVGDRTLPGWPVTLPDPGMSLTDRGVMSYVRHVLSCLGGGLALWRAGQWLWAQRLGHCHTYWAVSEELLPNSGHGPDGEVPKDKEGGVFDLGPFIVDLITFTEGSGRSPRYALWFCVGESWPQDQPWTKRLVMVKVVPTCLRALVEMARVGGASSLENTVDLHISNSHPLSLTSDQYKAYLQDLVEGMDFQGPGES

Block 1 — technique: protein binding microarray; form: double-stranded DNA, one strand shown; sample: in vitro; concentration: not given; relative to: not given; reading: higher = stronger binding; quantity: E-score
Target: Histone acetyltransferase KAT6A, winged helix 1, GST fusion (KAT6A, Homo sapiens, UniProt Q92794, residues 1-85)
Notes: 8-mer, flanks averaged, mean of 2 arrays, mostly near background
Target sequence (chain): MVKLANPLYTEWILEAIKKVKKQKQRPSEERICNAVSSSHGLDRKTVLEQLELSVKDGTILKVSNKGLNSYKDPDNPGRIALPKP
AATTACTC: -0.0702
CTATCTAA: -0.0201
CCGAGCGG: 0.362

Mixed results
SALL4 full length isoform B: Sal-like protein 4, full length isoform B (SALL4, Homo sapiens, UniProt Q9UJQ4-2, residues 1-616)
CCTCCGTA
E-score (SALL4 full length isoform B; universal PBM; double-stranded DNA, one strand shown, in vitro; not given, 8-mer, flanks averaged, mean of replicates; higher = stronger binding): -0.181

GCCTAGCACTCAGGTCTCTAACTCAAACTGTGCTAGGTCTTGATTCGCTTGACGCTGCTG
fitted relative affinity (Interferon regulatory factor 7, full length, phosphomimetic (IRF7, Homo sapiens, UniProt Q92985, residues 1-503, S471D/S472D/S475D/S476D/S477D/S483D/S484D/S487D); protein-binding microarray; double-stranded DNA, one strand shown, in vitro; 2200 nM top, 60-bp whole probe, with: salmon DNA 0.4 mg/ml; relative to: random background probes, higher = stronger binding): 0.367 z-score

ACTTGGTG
E-score (SALL4 full length isoform B; universal PBM; double-stranded DNA, one strand shown, in vitro; not given, 8-mer, flanks averaged, mean of replicates; higher = stronger binding): -0.0688

GCCTAGCACTTAGAACTGAGTTTCGATTGGTGCTAGGTCTTGATTCGCTTGACGCTGCTG
log fluorescence (Interferon regulatory factor 7, full length, phosphomimetic (IRF7, Homo sapiens, UniProt Q92985, residues 1-503, S101K/S471D/S472D/S475D/S476D/S477D/S483D/S484D/S487D); protein-binding microarray; double-stranded DNA, one strand shown, in vitro; 250 nM, 60-bp whole probe, with: salmon DNA 0.4 mg/ml; relative to: random background probes, higher = stronger binding): 9.35 z-score

CTCCGTCA
E-score (SALL4 full length isoform B; universal PBM; double-stranded DNA, one strand shown, in vitro; not given, 8-mer, flanks averaged, mean of replicates; higher = stronger binding): -0.0356

PhoQ, residues 284 288 289 292 302 303 ASTSDA
fold induction (PhoP, residues 12 14 15 18 19 VQGLL (Escherichia coli, UniProt P23836); Sort-seq, measured: YFP reporter; E. coli; PhoQ-PhoP variant library, with: 10 µM Mg2+; relative to: high Mg2+ state, higher = stronger signaling): 17.4

GCCTAGCACTTAGGTATCGGGTAACGGTTAGTGCTAGTCTTGATTCGCTTGACGCTGCTG
fitted relative affinity (Interferon regulatory factor 3, full length, phosphomimetic (IRF3, Homo sapiens, UniProt Q14653, residues 1-427, S386D/S396D/S398D/S402D/T404D/S405D); protein-binding microarray; double-stranded DNA, one strand shown, in vitro; 2540 nM top, 60-bp whole probe, with: salmon DNA 0.4 mg/ml; relative to: random background probes, higher = stronger binding): 0.727 z-score

Repeated from above (block 1):
AATTACTC: -0.0702
CCGAGCGG: 0.362
